Measured values pooled from the literature.
Each numbered part is a random draw from the data of one study; scales do not carry over between parts. Substitutions count along the parent as printed.

Series 1 — target: CCNB3, cyclin fold, Cln2 fusion (human); technique: yeast growth competition, sequencing; matrix: yeast; setting: strong parent motif; baseline: not given; reading: higher = stronger binding
Starting sequence: BRCA2 docking peptide (human); PSIKRNLLNEFDR
Variant	normalised enrichment score
PSIKRNLLNEFVR [D12V]	1.1
PSIKRNLLSEFDR [N9S]	1.4
PSIKRNLLNEFNR [D12N]	1.43
PSIKRNLLNEQDR [F11Q]	0.202
PSIKRFLLNEFDR [N6F]	0.603
PSIKRNLLNEFIR [D12I]	-0.487
PSIKRNLHNEFDR [L8H]	0.425
PSIKRNLLNEFDT [R13T]	1.11
PSIKRTLLNEFDR [N6T]	2.41
PSDKRNLLNEFDR [I3D]	-0.461
PSIKVNLLNEFDR [R5V]	0.755
PSIKRNLLNEFSR [D12S]	0.779
VSIKRNLLNEFDR [P1V]	1.09

Series 2 — technique: protein binding microarray; molecule type: double-stranded DNA, one strand shown; matrix: in vitro; tested at: not given; baseline: not given; reading: higher = stronger binding
Target: Histone acetyltransferase KAT6A, winged helix 2, GST fusion (KAT6A, Homo sapiens, UniProt Q92794, residues 85-181)
Setting: 8-mer, flanks averaged, mean of 2 arrays, mostly near background
Construct (chain): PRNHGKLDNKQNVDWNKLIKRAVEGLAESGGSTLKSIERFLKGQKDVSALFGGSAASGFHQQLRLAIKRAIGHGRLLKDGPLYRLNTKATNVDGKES
Oligonucleotide	E-score
AGTACGGG	-0.0998
AGTCCCCG	0.0134
CTGCTAAA	0.151
AGCGCTAT	0.0324
AATACACT	-0.0089
AGGACAAA	-0.00817
CTCGGGTC	0.129
CATGGGGC	-0.0235
CAAAGAAG	0.0474
CTAGCACC	0.166
ATGTCGAC	0.0216
AACTTCGA	-0.0898
AACAGCGA	-0.0386
GTTGTAGA	0.00624
ATACCAAA	-0.00779
CGAGCGCC	0.0875
AAACCCTT	-0.0339
GGGAAGTA	-0.0537

Series 3 — technique: RNA Bind-n-Seq; molecule type: RNA; matrix: in vitro; tested at: 365 nM; baseline: no-protein control; reading: higher = stronger binding
Target: RNA binding protein fox-1 homolog 2, RRM domain, GST-SBP tag (RBFOX2, Homo sapiens, UniProt O43251-10, residues 100-194)
Setting: natural RNA segment, single round, ends assumed
All sequences stand within: GGGAGUUCUACAGUCCGACGAUC … UGGAAUUCUCGGGUGCCAA
Target sequence (chain): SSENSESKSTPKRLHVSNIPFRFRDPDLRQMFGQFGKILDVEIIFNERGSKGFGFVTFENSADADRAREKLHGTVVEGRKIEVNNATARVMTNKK
Oligonucleotide	RBNS enrichment (R)
ACCUGUGCCAACUGUGGAGUGGGGAGGCAGGGCCUGAACCCUCAAUCCCUGCAGCCUAGCCUCCCCACCCUCCAGAACCUGGAAUAGCUGAGCAGCUCAGGCUGUGGCCC	0.453
UAUAUUCCUGCAUAACUCAAUCUGAACCAAGGAUUGUAGUUUAGUUUUCCUCCUUGCCUUCCCUUCUGUGUGACCGACCCCUUGGCCAAAAAAAAACAAAAAGCAAAAAA	0.905
GCACUGGUCACAACCGGGCAGUGGACUGGUGGAGCCUGGGAGCCCUGAUGUACGACAUGCUCACUGGAUCGGCAAGUCCAGCUUCCUUGGGCGCAGGGUGGGUGUUGGGG	0.259
AAUCAGUUUUCUCCUUGAGGCUUGAUCUCCCAUUUCUCUCAUCCCAUUAUAGCUUUUCAUGUAGAUCUGAGGCCCAGGUUACUGUAAUUCUUUUUUUUCCAAUUUCCUUG	0.985
UCUGAAGGCAAGACUGGGAUUGGAUCACUUCUUAAACUUCCAGUUAAGAAUCUAGGUCCGCCCUCAAGCCCAUACUGACCAUGCCUCAUCCAGAGCUCCUCUGAAGCCAG	0.242
AGCAUCCCCAUCGCAGCUGUAAGAAUUGAGCUGCAGAAGGUACCCUCUGUCGGGAUUGUAUCUCGACAUCCCUGUCGCGUUUUUCUUAGCUGGAGUGUGUGCUGCCUUUC	0.522
ACAGGCAUGCACCAGUGCCGCCUGUGCCCACGUGUGCAGACUGUGGCUGCAGAGACCUUGCGACCAUGUGUAGAUUGCGUGGACCCCGACAAAGGGAAGGCUGCUGUGUA	0.31
UUUUAUUUUCUUCUUUGGUCAUGGGGGCCAAGGAGAAAGGCAUGAAUCUUCCCUGUCAGGCUCUUACAGCCACAGGCACUGUGUCUACUGUCUGGAAGACAUGUCCCCAU	0.943

Series 4 — technique: RNA Bind-n-Seq; molecule type: RNA; matrix: in vitro; tested at: not given; setting: RNA with constant flanks, ends assumed; baseline: input RNA pool; reading: higher = stronger binding
Target: RING finger protein unkempt homolog, zinc fingers 1-6, GST-SBP tag (UNK, Homo sapiens, UniProt Q9C0B0, residues 30-357)
Sequence of UniProt Q9C0B0 (30-357, looked up): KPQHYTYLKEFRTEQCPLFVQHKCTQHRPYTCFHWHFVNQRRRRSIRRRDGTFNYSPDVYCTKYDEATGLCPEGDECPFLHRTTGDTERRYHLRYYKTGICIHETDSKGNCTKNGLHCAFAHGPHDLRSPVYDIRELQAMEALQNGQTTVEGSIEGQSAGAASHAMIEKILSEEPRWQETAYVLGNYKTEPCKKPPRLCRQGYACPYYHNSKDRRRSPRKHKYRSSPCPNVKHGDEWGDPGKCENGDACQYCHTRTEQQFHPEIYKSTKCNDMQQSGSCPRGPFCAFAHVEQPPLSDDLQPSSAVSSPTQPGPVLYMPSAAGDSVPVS
All sequences stand within: GGGAGUUCUACAGUCCGACGAUC … CAACAGAGGAUUGAGCAUCA
Oligonucleotide	bound/input enrichment
AACAACUUUCUUCAAACGCUAAAUCAAGCUUGGAAUGAUCAUCAAACAGCUAUGGUGAUGAUCCGAGACAUACUAAUGUACAUGGACCGUGUGUAUGUACAACAAAAUAAUGUGGAGAAC	0.119 ratio
GGUUUGGUGUUUGGUUUUUGUUUGUUUGUUUUACUUUUUAAAUACAACACGUACAGUUUCAUCCGCCCCAGGCCUUGUCAUCCUGUGUUCAUUCAAAUUGAGAUACAAUCUAAAAUUCAU	0.123 ratio
CUUCUAAGUCGUGUCACUCUUCUAGAAACGGAGAUGCUGUUGUCCAAAAAGAGUGAAUCUGCCGAGCGUAAUGUGGCAAGUCAAGACUGUGAGUCAAUUAGUGAUGUGGACUUUGUACCC	0.376 ratio
CGCAGAAGAUUAAAGGGUGAAAAUGGGAUGGAGGAUUGUGUCAUGGCCCUAGAAACCUUGUUCCGUGUUCUGCUUUCUCUUUGCAGACUUAUGGCUCCCUACACACCUUUUCUCACUGAA	0.181 ratio
UCUUCUCUUUUUGGAAUUUUAUCUCCUAGUAGUGAUCUCACACUUUCAAGUGUUCUCUGGGACCGAGAGAGAUCAAGCUUUUAUAGCCUGACGAGUUCAAACAUCAGUAAAUGGGAAUUA	0.397 ratio
GCCAUUACAACUCUCCACAACCUUUUAUUACAUCAAGAAGGAGCUAAAAUGGCAGUGCGUUCCGCUGGUGGGCUGCAGAAAAUGGUUGCCUUGCUCAACAAAACAAAUGUUAAAUUCUUG	0.22 ratio

Series 5 — technique: universal PBM; molecule type: double-stranded DNA, one strand shown; matrix: in vitro; tested at: not given; reading: higher = stronger binding
Target: Sal-like protein 4, full length isoform B (SALL4, Homo sapiens, UniProt Q9UJQ4-2, residues 1-616)
Setting: 8-mer, flanks averaged, mean of replicates
Construct (chain): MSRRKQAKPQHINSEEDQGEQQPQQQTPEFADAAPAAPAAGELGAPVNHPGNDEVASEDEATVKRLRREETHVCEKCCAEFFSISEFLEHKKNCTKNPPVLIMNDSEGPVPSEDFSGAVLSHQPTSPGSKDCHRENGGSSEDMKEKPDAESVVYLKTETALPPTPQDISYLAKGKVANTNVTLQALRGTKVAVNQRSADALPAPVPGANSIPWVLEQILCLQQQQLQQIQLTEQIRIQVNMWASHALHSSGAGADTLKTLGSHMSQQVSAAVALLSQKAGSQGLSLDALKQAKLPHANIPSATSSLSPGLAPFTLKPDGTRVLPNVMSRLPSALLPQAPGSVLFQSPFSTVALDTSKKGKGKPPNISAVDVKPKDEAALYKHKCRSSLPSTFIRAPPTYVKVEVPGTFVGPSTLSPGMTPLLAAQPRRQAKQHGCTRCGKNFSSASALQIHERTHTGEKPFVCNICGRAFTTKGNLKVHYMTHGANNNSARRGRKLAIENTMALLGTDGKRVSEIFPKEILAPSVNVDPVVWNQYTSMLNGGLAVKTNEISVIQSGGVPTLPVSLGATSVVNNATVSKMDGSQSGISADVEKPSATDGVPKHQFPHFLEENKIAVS
Oligonucleotide	E-score
CCTGGACA	-0.206
TATTGTCA	0.268
TACAGCGA	-0.0141
AACATGTG	0.194
GCCCCGAC	-0.29
GACGGTAC	0.0389
CAATCCCG	-0.157
AACACGGA	-0.0412
TGTGGAAA	0.234
GAGAGTCA	0.0576
AGTAGCTC	-0.0644
TATGACAA	0.325

Series 6 — technique: protein-binding microarray; molecule type: double-stranded DNA, one strand shown; matrix: in vitro; tested at: 2540 nM top; setting: 60-bp whole probe; with: salmon DNA 0.4 mg/ml; baseline: random background probes; reading: higher = stronger binding; all sequences stand within: GCCTAGCAC … GTCTTGATTCGCTTGACGCTGCTG
Target: Interferon regulatory factor 3, full length, phosphomimetic (IRF3, Homo sapiens, UniProt Q14653, residues 1-427, S386D/S396D/S398D/S402D/T404D/S405D)
Target sequence (chain): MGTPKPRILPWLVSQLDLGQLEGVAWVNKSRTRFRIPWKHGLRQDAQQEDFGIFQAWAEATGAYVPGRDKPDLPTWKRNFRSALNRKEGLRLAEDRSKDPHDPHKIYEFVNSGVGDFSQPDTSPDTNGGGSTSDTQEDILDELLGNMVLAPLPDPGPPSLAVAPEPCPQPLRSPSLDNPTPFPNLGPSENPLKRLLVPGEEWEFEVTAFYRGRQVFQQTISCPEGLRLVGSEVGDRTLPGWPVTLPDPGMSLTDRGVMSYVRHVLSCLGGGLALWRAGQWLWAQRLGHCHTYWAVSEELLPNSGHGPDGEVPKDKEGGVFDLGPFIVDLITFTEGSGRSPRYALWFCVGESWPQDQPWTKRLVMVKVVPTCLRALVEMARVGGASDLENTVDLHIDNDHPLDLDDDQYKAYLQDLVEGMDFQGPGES
Oligonucleotide	fitted relative affinity
TTAGATCTCAGACTGGATCAGTGCTAG	0.0433 z-score
GACGGACTTGACACTGGGGACGTGCTA	-0.713 z-score
TTAGGTATCCTTATCCTTGAGTGCTAG	5.28 z-score
TTAGAACTGGGGACTGGTTTAGTGCTA	-0.905 z-score
TCAGTTTTCAATTTTTGACTGTGCTAG	2.87 z-score
TTAGGTATCGGTCTCGGTAAGTGCTAG	4.76 z-score
TTAGATATCAGTTTCGATCAGTGCTAG	3.99 z-score
GACGCTATCGGGTTTCGAGACGTGCTA	0.826 z-score
TTAAGTTTCGGGTATCGGTTAGTGCTA	4.71 z-score
GACTGTTTGGTCCTGATCCTGTGCTAG	0.174 z-score
TTAGATTTCAGTTTCGAGTAGTGCTAG	4.22 z-score
TTAGGTCTCCTTATCATTTAGTGCTAG	2.52 z-score
TCACTTGTCCCTCCGGGACTGTGCTAG	0.0329 z-score
TGGGCTACCTCTCTTAGAATGTGCTAG	-0.445 z-score
TTAGATAGCAGTCTCGATTAGTGCTAG	-0.179 z-score

Some of these lines once more (series 2):
Oligonucleotide	E-score
AACTTCGA	-0.0898
AACAGCGA	-0.0386
GTTGTAGA	0.00624
ATACCAAA	-0.00779
CGAGCGCC	0.0875
AAACCCTT	-0.0339
